Assay results pooled from the literature.
Each numbered part is a random draw from the data of one study; scales do not carry over between parts. Values joined by “and” are separate records of one study, mostly repeats; a detail may differ.
UniProt P42336, sequence (whole entry, unmodified, looked up): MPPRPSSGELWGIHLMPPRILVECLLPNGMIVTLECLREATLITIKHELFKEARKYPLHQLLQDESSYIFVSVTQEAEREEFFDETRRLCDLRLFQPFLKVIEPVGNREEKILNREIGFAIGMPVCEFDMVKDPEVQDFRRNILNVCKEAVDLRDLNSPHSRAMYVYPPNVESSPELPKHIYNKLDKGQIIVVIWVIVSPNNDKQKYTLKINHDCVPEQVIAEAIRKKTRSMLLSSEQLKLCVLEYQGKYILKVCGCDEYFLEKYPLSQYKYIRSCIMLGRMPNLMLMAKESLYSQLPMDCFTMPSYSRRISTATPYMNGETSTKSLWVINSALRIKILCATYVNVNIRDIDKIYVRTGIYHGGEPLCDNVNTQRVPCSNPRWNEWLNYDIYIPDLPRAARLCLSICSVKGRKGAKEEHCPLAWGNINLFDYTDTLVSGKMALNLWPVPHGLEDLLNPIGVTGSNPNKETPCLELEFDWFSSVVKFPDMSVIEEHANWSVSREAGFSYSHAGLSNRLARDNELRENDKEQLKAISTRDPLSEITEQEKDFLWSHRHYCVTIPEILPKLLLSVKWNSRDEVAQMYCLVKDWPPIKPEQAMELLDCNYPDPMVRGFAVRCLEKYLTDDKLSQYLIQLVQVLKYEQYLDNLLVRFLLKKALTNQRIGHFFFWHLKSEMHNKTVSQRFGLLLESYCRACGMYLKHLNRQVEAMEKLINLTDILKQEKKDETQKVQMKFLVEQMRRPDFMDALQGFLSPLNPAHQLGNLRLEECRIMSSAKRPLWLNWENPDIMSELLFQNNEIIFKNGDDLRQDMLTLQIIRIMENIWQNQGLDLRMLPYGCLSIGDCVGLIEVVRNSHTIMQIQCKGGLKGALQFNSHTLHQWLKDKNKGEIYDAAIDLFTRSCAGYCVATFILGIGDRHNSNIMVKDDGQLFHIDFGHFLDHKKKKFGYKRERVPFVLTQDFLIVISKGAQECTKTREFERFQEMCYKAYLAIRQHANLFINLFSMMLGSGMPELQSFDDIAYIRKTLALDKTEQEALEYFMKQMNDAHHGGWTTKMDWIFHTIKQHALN
UniProt Q14012, sequence (whole entry, looked up): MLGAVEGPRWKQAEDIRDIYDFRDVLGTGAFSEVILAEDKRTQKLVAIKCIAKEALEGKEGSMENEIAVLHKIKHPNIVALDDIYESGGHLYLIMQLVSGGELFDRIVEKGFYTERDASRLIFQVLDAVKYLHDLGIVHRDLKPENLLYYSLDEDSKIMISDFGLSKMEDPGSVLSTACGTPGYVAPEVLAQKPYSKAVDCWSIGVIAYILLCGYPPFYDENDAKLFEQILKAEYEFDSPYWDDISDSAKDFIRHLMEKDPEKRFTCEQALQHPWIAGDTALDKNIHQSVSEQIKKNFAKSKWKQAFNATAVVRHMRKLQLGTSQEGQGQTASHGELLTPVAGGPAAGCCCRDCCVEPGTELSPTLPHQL
UniProt P0C1S8, sequence (whole entry, looked up): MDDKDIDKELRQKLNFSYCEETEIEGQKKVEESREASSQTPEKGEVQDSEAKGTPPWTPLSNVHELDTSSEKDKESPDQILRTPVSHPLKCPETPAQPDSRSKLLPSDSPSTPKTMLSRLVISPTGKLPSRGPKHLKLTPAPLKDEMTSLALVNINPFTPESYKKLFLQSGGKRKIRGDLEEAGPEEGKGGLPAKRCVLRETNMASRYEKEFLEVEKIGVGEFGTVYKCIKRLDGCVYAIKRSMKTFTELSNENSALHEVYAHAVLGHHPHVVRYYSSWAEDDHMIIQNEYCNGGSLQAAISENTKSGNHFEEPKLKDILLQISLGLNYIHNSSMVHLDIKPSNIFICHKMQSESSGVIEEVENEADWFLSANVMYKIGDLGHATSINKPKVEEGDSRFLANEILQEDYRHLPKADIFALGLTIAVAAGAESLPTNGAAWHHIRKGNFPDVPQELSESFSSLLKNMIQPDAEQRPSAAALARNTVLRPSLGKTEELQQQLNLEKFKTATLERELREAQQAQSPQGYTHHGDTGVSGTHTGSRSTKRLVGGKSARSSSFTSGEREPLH

Study 1
SMILES: COc1cc(-c2nc3ccc(C(=O)NCCCN(C)C)cc3n2C2CCC2)cc(OC)c1OC
Method: NanoBRET
Concentration: 1 µM
AAK1 (Homo sapiens, UniProt Q2M2I8) — target occupancy: 3.46%.
It gave -0.69% for target occupancy (Cyclin-dependent kinase 6, with cyclin D1 (CDK6, Homo sapiens, UniProt Q00534)).
The target occupancy was -1.24% (PLK4 (Homo sapiens, UniProt O00444)).
MKNK2 (Homo sapiens, UniProt Q9HBH9) — target occupancy: 3.83%.
The target occupancy was 0.23% (Cyclin-dependent kinase 3, with cyclin E1 (CDK3, Homo sapiens, UniProt Q00526)).
For WEE2 (Homo sapiens, UniProt P0C1S8): target occupancy read -1.08%.
ITK (Homo sapiens, UniProt Q08881) — target occupancy: -2.51%.
It gave -11.4% for target occupancy (CDKL5 (Homo sapiens, UniProt O76039)).
For STK17B (Homo sapiens, UniProt O94768): target occupancy read 4.23%.
For EPHA7 (Homo sapiens, UniProt Q15375): target occupancy read -6.69%.
MET (Homo sapiens, UniProt P08581) — target occupancy: 8.88%.
It gave -0.41% for target occupancy (ULK3 (Homo sapiens, UniProt Q6PHR2)).
It gave -2.69% for target occupancy (NTRK2 (Homo sapiens, UniProt Q16620)).
The target occupancy was -0.76% (MAST3 (Homo sapiens, UniProt O60307)).
It gave -2.75% for target occupancy (SBK3 (Homo sapiens, UniProt P0C264)).
For PLK3 (Homo sapiens, UniProt Q9H4B4): target occupancy read -4.38%.
It gave -0.35% for target occupancy (CLK2 (Homo sapiens, UniProt P49760)).
For FYN (Homo sapiens, UniProt P06241): target occupancy read -0.08%.
For JAK2 (Homo sapiens, UniProt O60674, V617F): target occupancy read 13.7%.

Study 2
SMILES: CCC1(c2cccc(-c3cn(C)nc3C)c2)C2=C(Nc3n[nH]cc31)C(F)C(C)(C)CC2=O (single isomer, unassigned)
Concentration: 1 µM
For PIK3CA (Homo sapiens, UniProt P42336, H1047L); binding, competition with immobilised ligand: remaining binding read 96%.
It gave 100% for remaining binding (MAST1 (Homo sapiens, UniProt Q9Y2H9); kinase binding, KINOMEscan; relative to: DMSO control).
MATK (Homo sapiens, UniProt P42679); kinase binding, KINOMEscan; relative to: DMSO control — remaining binding: 95%.
It gave 75% for remaining binding (HIPK2 (Homo sapiens, UniProt Q9H2X6); kinase binding, KINOMEscan; relative to: DMSO control).
It gave 97% for remaining binding (TRPM6 (Homo sapiens, UniProt Q9BX84); kinase binding, KINOMEscan; relative to: DMSO control).
For PIK3CA (Homo sapiens, UniProt P42336, C420R); binding, competition with immobilised ligand: remaining binding read 85%.
It gave 93% for remaining binding (CAMK1 (Homo sapiens, UniProt Q14012); kinase binding, KINOMEscan; relative to: DMSO control).
For PIK3CA (Homo sapiens, UniProt P42336); binding, competition with immobilised ligand: remaining binding read 100%.
NEK4 (Homo sapiens, UniProt P51957); kinase binding, KINOMEscan; relative to: DMSO control — remaining binding: 95%.
For CAMK2B (Homo sapiens, UniProt Q13554); kinase binding, KINOMEscan; relative to: DMSO control: remaining binding read 100%.
For PIK3C3 (Homo sapiens, UniProt Q8NEB9); kinase binding, KINOMEscan; relative to: DMSO control: remaining binding read 88%.
It gave 100% for remaining binding (PIM2 (Homo sapiens, UniProt Q9P1W9); kinase binding, KINOMEscan; relative to: DMSO control).
It gave 94% for remaining binding (PDGFRB (Homo sapiens, UniProt P09619); kinase binding, KINOMEscan; relative to: DMSO control).
The remaining binding was 87% (DAPK1 (Homo sapiens, UniProt P53355); kinase binding, KINOMEscan; relative to: DMSO control).
For EPHA5 (Homo sapiens, UniProt P54756); kinase binding, KINOMEscan; relative to: DMSO control: remaining binding read 98%.
The remaining binding was 100% (FLT4 (Homo sapiens, UniProt P35916); binding, competition with immobilised ligand).
For EGFR (Homo sapiens, UniProt P00533, del747-750/T751S); kinase binding, KINOMEscan; relative to: DMSO control: remaining binding read 89%.
The remaining binding was 96% (PIK3CA (Homo sapiens, UniProt P42336, E545A); kinase binding, KINOMEscan; relative to: DMSO control).
For LATS2 (Homo sapiens, UniProt Q9NRM7); kinase binding, KINOMEscan; relative to: DMSO control: remaining binding read 89%.
For TEC (Homo sapiens, UniProt P42680); binding, competition with immobilised ligand: remaining binding read 100%.

Study 3
SMILES: C[C@@H]1CN(c2ccc(-c3cc(C(=O)NCCOCCOCCOCCOCCNC(=O)Cn4cc(-c5[nH]cc(C(=O)N[C@@H](CC(N)=O)c6ccc(F)c(Cl)c6)c5-c5ccc(Cl)cc5F)cn4)ccc3F)cc2NC(=O)c2c[nH]c(=O)cc2C(F)(F)F)C[C@H](C)N1C
Observed: thermal unfolding
Method: differential scanning fluorimetry
Concentration: 5.5 µM
Reading: higher = more unfolded
DCAF1: DDB1- and CUL4-associated factor 1 (DCAF1, Homo sapiens, UniProt Q9Y4B6)
UniProt Q9Y4B6, sequence (whole entry, looked up): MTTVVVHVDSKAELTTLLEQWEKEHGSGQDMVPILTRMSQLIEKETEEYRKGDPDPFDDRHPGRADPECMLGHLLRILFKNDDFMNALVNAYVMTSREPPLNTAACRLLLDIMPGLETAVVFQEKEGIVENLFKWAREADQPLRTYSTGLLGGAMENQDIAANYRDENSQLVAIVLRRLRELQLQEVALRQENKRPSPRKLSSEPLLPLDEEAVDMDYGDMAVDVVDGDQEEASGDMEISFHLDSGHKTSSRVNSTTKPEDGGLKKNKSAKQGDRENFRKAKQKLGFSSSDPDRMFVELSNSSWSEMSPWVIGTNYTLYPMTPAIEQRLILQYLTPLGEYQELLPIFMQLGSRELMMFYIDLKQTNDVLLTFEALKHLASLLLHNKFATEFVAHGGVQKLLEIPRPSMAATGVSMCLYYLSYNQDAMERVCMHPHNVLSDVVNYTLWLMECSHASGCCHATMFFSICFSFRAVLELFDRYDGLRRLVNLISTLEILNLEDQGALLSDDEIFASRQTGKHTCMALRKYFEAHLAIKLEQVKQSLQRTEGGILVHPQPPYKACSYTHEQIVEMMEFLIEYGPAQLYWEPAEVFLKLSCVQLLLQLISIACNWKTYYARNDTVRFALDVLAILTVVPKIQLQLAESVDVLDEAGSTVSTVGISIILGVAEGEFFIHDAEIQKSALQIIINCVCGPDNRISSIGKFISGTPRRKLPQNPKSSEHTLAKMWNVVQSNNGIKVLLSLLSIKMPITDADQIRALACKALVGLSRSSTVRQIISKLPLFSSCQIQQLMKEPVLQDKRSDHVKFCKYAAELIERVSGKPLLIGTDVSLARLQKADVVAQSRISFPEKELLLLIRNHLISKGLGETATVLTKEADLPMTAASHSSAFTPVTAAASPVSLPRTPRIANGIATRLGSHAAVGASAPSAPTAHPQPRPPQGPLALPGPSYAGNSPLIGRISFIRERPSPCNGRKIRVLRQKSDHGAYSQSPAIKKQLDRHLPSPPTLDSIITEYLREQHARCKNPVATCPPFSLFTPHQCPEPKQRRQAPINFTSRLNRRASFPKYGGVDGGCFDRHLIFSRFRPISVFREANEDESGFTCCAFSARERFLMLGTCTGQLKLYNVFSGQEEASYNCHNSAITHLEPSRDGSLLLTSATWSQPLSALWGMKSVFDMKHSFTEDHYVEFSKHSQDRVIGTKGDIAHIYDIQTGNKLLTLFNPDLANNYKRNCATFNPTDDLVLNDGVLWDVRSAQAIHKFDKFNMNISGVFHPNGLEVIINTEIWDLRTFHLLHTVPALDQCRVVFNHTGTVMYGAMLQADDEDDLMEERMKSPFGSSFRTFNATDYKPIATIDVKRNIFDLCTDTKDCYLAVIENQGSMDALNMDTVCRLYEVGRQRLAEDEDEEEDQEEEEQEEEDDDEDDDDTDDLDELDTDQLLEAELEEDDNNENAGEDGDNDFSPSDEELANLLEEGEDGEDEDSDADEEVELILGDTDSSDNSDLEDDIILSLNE
DCAF1; 73.81 °C — “SYPRO Orange fluorescence”: 50600 a.u.
For DCAF1; 31.8 °C: “SYPRO Orange fluorescence” read 8250 a.u.
DCAF1; 62.01 °C — “SYPRO Orange fluorescence”: 47700 a.u.
For DCAF1; 30.2 °C: “SYPRO Orange fluorescence” read 8310 a.u.
For DCAF1; 70.81 °C: “SYPRO Orange fluorescence” read 53600 a.u.
The “SYPRO Orange fluorescence” was 8740 a.u. (DCAF1; 34.6 °C).
DCAF1; 53.41 °C — “SYPRO Orange fluorescence”: 17100 a.u.
The “SYPRO Orange fluorescence” was 42800 a.u. (DCAF1; 81.61 °C).
DCAF1; 93.01 °C — “SYPRO Orange fluorescence”: 32100 a.u.
WDR5 (Homo sapiens, UniProt P61964); 43.8 °C — “SYPRO Orange fluorescence”: 14500 a.u.
The “SYPRO Orange fluorescence” was 8260 a.u. (DCAF1; 31.6 °C).

Study 4
Compound: Cc1nc2c([nH]1)c(=O)[nH]c(=S)n2Cc1cccc(OC/C(=C/F)CN)c1
Observed: enzyme activity
Mode: inhibitor
Method: fluorescence
MPO: Myeloperoxidase (MPO, Homo sapiens, UniProt P05164)
UniProt P05164, sequence (whole entry, looked up): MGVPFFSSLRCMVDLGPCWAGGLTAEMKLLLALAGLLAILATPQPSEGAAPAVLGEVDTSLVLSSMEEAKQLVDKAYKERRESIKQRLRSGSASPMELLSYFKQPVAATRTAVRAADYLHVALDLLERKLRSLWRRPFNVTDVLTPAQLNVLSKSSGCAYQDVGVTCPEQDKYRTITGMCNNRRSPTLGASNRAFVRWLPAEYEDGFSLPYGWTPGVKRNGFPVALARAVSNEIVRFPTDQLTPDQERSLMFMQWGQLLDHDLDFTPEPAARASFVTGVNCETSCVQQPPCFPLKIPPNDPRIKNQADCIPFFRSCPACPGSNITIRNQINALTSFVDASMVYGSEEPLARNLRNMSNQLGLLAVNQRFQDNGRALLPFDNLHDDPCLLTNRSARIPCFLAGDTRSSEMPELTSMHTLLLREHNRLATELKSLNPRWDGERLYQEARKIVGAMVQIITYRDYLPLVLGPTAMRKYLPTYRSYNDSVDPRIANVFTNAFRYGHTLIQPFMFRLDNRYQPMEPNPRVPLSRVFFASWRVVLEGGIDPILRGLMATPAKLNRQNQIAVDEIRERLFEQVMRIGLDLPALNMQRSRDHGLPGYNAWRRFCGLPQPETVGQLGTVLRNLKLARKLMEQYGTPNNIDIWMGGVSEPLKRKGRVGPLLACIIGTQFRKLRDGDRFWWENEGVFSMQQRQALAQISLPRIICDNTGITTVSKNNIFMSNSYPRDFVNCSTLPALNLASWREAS
AOC3: Amine oxidase [copper-containing] 3 (AOC3, Homo sapiens, UniProt Q16853)
UniProt Q16853, sequence (whole entry, looked up): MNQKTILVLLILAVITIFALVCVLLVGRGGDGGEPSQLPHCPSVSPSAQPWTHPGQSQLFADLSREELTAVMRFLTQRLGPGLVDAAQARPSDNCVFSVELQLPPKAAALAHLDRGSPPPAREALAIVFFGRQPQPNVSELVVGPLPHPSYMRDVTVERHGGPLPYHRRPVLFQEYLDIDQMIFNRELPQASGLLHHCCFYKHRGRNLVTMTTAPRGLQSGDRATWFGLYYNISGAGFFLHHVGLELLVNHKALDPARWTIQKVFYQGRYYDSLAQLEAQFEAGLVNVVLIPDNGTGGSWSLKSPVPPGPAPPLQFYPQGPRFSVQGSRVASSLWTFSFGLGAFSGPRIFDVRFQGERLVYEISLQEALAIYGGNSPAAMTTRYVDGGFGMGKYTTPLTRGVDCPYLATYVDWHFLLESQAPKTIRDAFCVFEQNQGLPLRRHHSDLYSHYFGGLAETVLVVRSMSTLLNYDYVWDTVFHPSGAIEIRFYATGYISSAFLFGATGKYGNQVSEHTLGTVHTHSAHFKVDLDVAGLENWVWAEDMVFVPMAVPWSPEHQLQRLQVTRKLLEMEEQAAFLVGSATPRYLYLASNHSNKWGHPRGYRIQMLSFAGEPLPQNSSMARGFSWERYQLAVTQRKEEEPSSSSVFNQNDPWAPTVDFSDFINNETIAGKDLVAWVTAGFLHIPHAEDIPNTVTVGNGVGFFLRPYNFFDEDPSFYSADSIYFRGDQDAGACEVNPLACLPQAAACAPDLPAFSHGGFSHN
For MPO; 4.6 nM: inhibition read -7.9%.
The inhibition was 38.3% (MPO; 0.3704 µM).
MPO; 500 pM — inhibition: -13.2%.
MPO; 41.2 nM — inhibition: -0.15%.
For MPO; 15 µM: inhibition read 99.8% and 98.9%.
For AOC3; 3.333 µM: inhibition read 100% and 97.8%.
AOC3; 10 µM — inhibition: 101% and 100%.
For MPO; 1.111 µM: inhibition read 68.1%.

Repeated from above (study 4):
The inhibition was 38.3% (MPO; 0.3704 µM).
MPO; 500 pM — inhibition: -13.2%.
MPO; 41.2 nM — inhibition: -0.15%.
For MPO; 15 µM: inhibition read 99.8% and 98.9%.
For AOC3; 3.333 µM: inhibition read 100% and 97.8%.
AOC3; 10 µM — inhibition: 101% and 100%.
